Experimental data pooled from the literature.
Each numbered part is a random draw from the data of one study; scales do not carry over between parts. Substitutions count along the parent as printed.

Sample 1 — method: DHFR PCA, dose-response; matrix: yeast; together with: (+)-ABA, dose series; reading: lower = more sensitive
Target: ABI1, truncated, D143A, DHFR fusion (Arabidopsis thaliana, UniProt P49597)
Setting: Hill fit, not affinity, not high confidence
Parent: PYL1, truncated, DHFR fusion (Arabidopsis thaliana, UniProt Q8VZS8); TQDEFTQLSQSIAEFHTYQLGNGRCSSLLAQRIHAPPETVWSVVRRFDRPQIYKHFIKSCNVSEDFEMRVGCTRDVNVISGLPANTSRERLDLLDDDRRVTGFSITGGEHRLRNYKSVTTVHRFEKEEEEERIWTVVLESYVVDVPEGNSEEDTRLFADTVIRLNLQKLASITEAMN
| Variant | ABA EC50 [µM] |
| --- | --- |
| L169S | 33.8 |
| S117I | 51.9 |
| N177A | 0.798 |
| R74Y | 7.55 |
| T173K | 599 |
| N177Q | 1.52 |
| K54P | 8.99 |
| D159Q | 51 |
| I162D | 0.00348 |
| H16L | 188 |
| F47C | 8.67 |
| E89Y | 0.34 |
| G81T | 202 |
| S87H | 0.77 |
| T119W | 72.4 |
| F103T | 1170 |
| V100E | 1180 |
| L166D | 0.403 |
| S80L | 0.455 |
| V161G | 2.69 |

Sample 2 — method: RNA Bind-n-Seq; form: RNA; matrix: in vitro; tested at: not given; reference: input RNA pool; reading: higher = stronger binding
Target: RING finger protein unkempt homolog, zinc fingers 1-6, GST-SBP tag (UNK, Homo sapiens, UniProt Q9C0B0, residues 30-357)
Setting: RNA with constant flanks, human and mouse sites, ends assumed
Constant ends, left off below: GGGAGUUCUACAGUCCGACGAUC … CAACAGAGGAUUGAGCAUCA
Residues (chain): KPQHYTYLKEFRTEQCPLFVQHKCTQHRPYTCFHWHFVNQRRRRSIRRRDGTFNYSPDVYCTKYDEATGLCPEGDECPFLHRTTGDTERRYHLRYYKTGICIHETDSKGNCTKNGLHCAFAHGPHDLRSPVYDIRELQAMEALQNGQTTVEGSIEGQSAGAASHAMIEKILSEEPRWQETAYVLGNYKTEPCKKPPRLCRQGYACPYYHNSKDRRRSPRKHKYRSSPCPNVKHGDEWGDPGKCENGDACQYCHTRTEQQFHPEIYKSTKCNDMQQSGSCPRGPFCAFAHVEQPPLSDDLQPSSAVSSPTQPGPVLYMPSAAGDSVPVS
| Sequence | bound/input enrichment [ratio] |
| --- | --- |
| AAAAUUUUUGCCUUUGCCAACUCACUAGUGGAACUUCUGGCUGUGGGGUUAGAAACCUUUAAUAGAGCACGCUAUAGGCAGUUUGUGAAGCGAAUUGGUUAUAUGAUCAGGAUGACUCUU | 0.809 |
| ACAUGGGUUCAAUUGGACAAUUAUUUUUGCUCUGCUCUGUUUUGCAUGGAGUAUUAUUAUUUUAAAAAUUGCAUUUUUACCUUUCAUGUGCCUGAAGGCUAUCCACUACAUUCUGAAGGC | 0.79 |
| CUCUACAAUGCUGCCAGCUUAUUUGGAUUCCCAUUCCAGCUGACCACAAAGCCCAUGGUAACUUCUGCUUGUAAUGGAACACGGAAUGUGGCCCCUUCAGGAGAGGUAUUUUCGAACUCU | 0.219 |
| UUGUGUUUUGUACAGGGCAUUCUCUGUACUAGUUUGUCGUGGUUAUAAAACAAUUAGCAGAAUAGCCUACAUUUGUAUUUAUUUUCUAUUCCAUACUUCUGCCCACGUUGUUUUCUCUCA | 8.47 |
| UAUAAAAGGCGACACAAUCUUGACAACCUCUUACAGCAGCAUAAACAGAAAACUUCACGAAAACCUCGUGAAGAGCGAGAUGUGUCUCAAUGUGAAAGUGUCGCUUCCACUGUUUCUGCU | 0.215 |
| GUUUUUUGUUGUUGUUGUUGUUGUUUUUUUUUUUUGAGGUGGGGAAUUUCUGUUUAUUUCAUUUUGUAGAGCUGGACAAUUGAGUCCAGGGCCUCUCAAAUGCUAGGCAAAACUCUGUCA | 1.13 |
| AACCUGCAGGAACAGUACCUGGAAGCCCACGACCGUCUCCUUGCAGAGACCCACUACCAGCUGGGCUUGGCUUAUGGGUACAACUCUCAGUAUGAUGAGGCAGUGGCACAGUUCAGCAAA | 0.062 |
| UUGAUUCAUAGGGAUAUUAAAGCAGGAAAUAUUCUUCUAACAGAGCCAGGUCAGGUAAAACUAGCUGAUUUUGGAUCUGCUUCAAUGGCUUCUCCUGCCAACUCCUUCGUGGGCACACCU | 0.0746 |
| CUUUAAGUCUUUGAGAGGGGCCUGAAGAGCCUCCGGGCUCCUGGGACAUUGAUGUAGAGUUUUUAGUGAAGUGGGCACCUUUCUAGUCCACGGCAUUUGAAGAGAGCGAGGAGAACCAUU | 0.441 |
| AGGUCUUGCCACUAGGAAUUUUUAAAAAGCAUACUUCUGUUACAUAUAACAACAUUUCAGGAAAUUCAGCCAGCUUGUUUUCUUUCUCUCCUGUGUUAAUAUUUAGUGUUUCUCAUGAGG | 13.6 |
| AGAUGGUUCCAGAAAAACGAGCCUCAGCUGGCGAAUGCCUUCGACAUCCUUGGUUGAAUUCUUAGCAGAUUCUACAAAUAUAGCAUUCUGAGCUAGCAAAUUUCUCCCAGUACAUUGGAC | 0.77 |

Sample 3 — method: EMSA with sequencing; form: double-stranded DNA, one strand shown; matrix: in vitro; tested at: 10 and 20 nM; reference: negative control set to 0; reading: higher = stronger binding
Target: Hepatocyte nuclear factor 3-alpha (Foxa1, Mus musculus, UniProt P35582, residues 1-468, full length assumed)
UniProt P35582, sequence (whole entry, looked up): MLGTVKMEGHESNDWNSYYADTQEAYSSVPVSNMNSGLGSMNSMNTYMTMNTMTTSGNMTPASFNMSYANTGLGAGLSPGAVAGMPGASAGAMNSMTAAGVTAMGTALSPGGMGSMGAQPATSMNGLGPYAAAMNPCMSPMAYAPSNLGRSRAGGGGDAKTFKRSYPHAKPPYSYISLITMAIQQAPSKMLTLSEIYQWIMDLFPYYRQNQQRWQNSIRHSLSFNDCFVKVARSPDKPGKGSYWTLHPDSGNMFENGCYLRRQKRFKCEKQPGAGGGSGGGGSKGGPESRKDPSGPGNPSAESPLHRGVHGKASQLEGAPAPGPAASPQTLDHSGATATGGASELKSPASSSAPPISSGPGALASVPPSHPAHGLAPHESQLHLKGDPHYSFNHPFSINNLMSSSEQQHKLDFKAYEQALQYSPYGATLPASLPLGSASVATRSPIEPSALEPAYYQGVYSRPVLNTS
Setting: whole designed probe, mean of two concentrations, ends assumed
Constant ends, left off below: GTGAGCGGTGCCCATTGATGGGGAAC … TTTCACTGGGATCGTGGGGAC
| Sequence | normalised bound fraction [ratio] |
| --- | --- |
| ATTTTTCATACTTTATGCAACAATTTGTTATGAGATACCAAAGCTGAAGAATGAGGTGTTTGACCATATTCAAAGACCACATGTGTCAGGACTGTTTACATTTCTGAAAGTACTTAGGGCAATCACAGGATGAAAGCAGTGTGTACTAAATCCTCTGTCCACAGAATTCTGCAAATATTATGTGTCTTGAGGG | 0.37 |
| AAGAGCCCGGCGGTAGGGCCATATGTTCCCCATAATCTCCAAAGCCGTCACTTCAATTAGAGCCTCCCCTGAGTTCTAATGCCCAATCCTGAGTAAACAAGCCGCTCTGAAAGAAGAACTCGGTTTCCAATTAAAAGTGTACTAACATTTCTCCTTCCTTTAATTCCCGCGGAGCAAAGCCCCGCGCGGGCGG | 0.338 |
| TGTATGAAATTTGTACAGAGGTGGAATCGTTTCTGCCATTTTTCACACACAAGTTGGTGCACATTCCTAATATGAATTAAAAATAAATATGCCATGTGTACACAGGGATGAGTCAACATTGCATGCAGCCAGCCATGGCCACTGGGAGAAGAGTCAGACATGGGCCATGGAGCTGCAGGCTCACCTGCCCCCG | 0.366 |
| TATTTACTGACCTAAACTTGGCTGTAACAGCTCTTACTCCCTCAGAGGAGGTACATGAGAGTTAAATGAGGTAATGAATTGCGCAGCCATCTGTAATCTTGACGAGGCTTTGTAATCTGAACTGGGACAACACAAACATTCGCTAGAATAATTCTCCCACTCCTTGAAAGAGTACTCTTCCCTTACCCCACCT | 0.111 |
| AACAGTAACATGGCAACAGCTTAAATAAATAAGACAGTACATTGTTTAAGAAACAACTAATGTTCTGAGGTTTCAGTGATAACAACCACAAAGTAAACATGCAAGGTGGTAAGAAATACCTGGCATGAATGCCTTTTGTTAAAAGTTGAACCACAAGTGCATTTTTTTTTACACTCTACTGAAGTATTTTTGT | 0.486 |
| GTCCATCACCATTATTTATTTTTAAAGCTGCTGAAAAGTGTAAGCCACCGCTTGATTTTGCCTTTCAAAAAAGGGGAAAGAACCCAAATTCAATGTAATTTTGGAAAGACCAGCATTGTTTCCACTTGGGCGAAGGCAGACACCCCAATCTGGGCAAAATTGATTCGGGTGGTTGTTGGAAAAAGCAGCTTTC | 0.14 |
| GTCTCCTGGGGTTCTGCGAAATCTAGCCAGAAGCATCTCCATCTCGGTGTCCATTTCGATCCAACTAAGCTTCCAGTAAAGACACTGCAGCAATGTAATCTTGCAACCTAAGCTAGCATGAGGTTCTAGATAGTAAGCCTGAACTAGGAATAAGGCAACTGAACTGTGACTTTCGGGCCAGGGTCATCCAGCT | -0.0938 |
| ATCTTCCCCCTCTTCCTTGCCCCACCAGCTCACCTACGGGGGTTATTTGCACAAAGGAAAATAAATAAAGCCGGCATTCGTTAACGCAGTTCTGGCGCAAACTGCTGTTTGCTCTGGATGAATCATGGTCCTTTGGCGACGCCAGGCTCCGGGAGAGCAAAGCACCGTGTCAGGGCCATGATCCGGGGTGGCC | 0.381 |

Sample 4 — target: CCNB2, cyclin fold, Cln2 fusion (human); method: yeast growth competition, sequencing; matrix: yeast; setting: weak parent motif; reference: not given; reading: higher = stronger binding
Parent: ANKRD17 docking peptide (human); PSVRRQLFVTVVK; partner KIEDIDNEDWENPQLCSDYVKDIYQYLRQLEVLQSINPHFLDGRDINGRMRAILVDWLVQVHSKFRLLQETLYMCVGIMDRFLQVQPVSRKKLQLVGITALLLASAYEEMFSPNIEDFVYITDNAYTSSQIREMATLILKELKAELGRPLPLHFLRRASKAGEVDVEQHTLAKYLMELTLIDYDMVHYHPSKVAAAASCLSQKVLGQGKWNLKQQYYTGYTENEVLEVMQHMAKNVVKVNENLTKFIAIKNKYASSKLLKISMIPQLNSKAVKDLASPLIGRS
| Variant | normalised enrichment score |
| --- | --- |
| V11A | 1.16 |
| L7A | 1.15 |
| Q6A | 0.128 |
| T10A | 1.02 |
| V12A | 0.732 |
| R5K F8L | 1.32 |
| F8A | 0.732 |
